# Published values of several laboratories.
# Numbered parts are unrelated; each lists some results of a single study. Substitutions count along the parent as printed.

# Study 1
# Target: Ras GTPase-activating protein-binding protein 1, full length (G3BP1, Homo sapiens, UniProt Q13283)
# UniProt Q13283, sequence (whole entry, looked up): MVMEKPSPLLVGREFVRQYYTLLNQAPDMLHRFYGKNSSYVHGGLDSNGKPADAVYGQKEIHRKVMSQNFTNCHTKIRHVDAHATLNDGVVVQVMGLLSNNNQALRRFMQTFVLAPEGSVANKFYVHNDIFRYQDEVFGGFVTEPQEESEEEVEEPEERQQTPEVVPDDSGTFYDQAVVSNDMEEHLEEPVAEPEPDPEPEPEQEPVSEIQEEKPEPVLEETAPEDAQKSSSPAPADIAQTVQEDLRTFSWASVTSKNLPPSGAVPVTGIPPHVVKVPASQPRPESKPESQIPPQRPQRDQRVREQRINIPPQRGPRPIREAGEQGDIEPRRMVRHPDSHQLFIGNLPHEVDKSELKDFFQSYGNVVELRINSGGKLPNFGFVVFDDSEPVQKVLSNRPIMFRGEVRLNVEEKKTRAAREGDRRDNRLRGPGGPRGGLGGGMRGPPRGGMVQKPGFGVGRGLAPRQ
# Technique: RNA Bind-n-Seq
# Form: RNA
# Sample: in vitro
# Tested at: 200 nM
# Notes: whole 134-nt RNA, ends assumed
# Together with: 150 mM LiCl
# Relative to: input library
# Direction: higher = stronger binding
# Library: 7-deaza-guanosine replaces G
Sequence,log2 enrichment
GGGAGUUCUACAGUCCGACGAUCUCAAGUCCUGUGCUACACAUCGUAUGUACCGAAUCGGUUUGGAGGAAAAAAAGGAAAGUAUUAUGUUACGCCGUUCGGAUCUGCACUUCCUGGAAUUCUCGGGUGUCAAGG,-0.249
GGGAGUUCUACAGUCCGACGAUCUGUUGAAAUGGGACAGUUGGCAGCGGCUCUGAUGAGCCCGAGAAGAGGCCUGCCCUUGGGUGCGGAGUCUCCCUCCGCACGAUGCUCCCAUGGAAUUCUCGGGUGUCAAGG,0.05
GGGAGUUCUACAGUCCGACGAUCAAGUCCUGUGCUACACAUCGUAUGUACCGAAUCGGGAAAAAGGGUGGGAAAAAGGGAAAGUAUUAUGUUACGCCGUUCGGAUCUGCACUUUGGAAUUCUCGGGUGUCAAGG,-0.37
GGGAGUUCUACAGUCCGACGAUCCCUGUGCUACACAUCGUAUGUACCGAAUCGGGGUUUUUUGGGUUUUUUGGGUUUUUUGGGGAAAGUAUUAUGUUACGCCGUUCGGAUCUGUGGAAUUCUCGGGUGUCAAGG,-0.301
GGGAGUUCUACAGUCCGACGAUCAAGUCCUGUGCUACACAUCGUAUGUACCGAAUCAAAUUUAAAUUUUUAAACCCAAAAAAGUAUUAUGUUACGCCGUUCGGAUCUGCACUUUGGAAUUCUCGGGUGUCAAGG,0.0573
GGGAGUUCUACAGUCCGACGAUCUGGCCCUGGUGGCAUGCGGGGAGGAAGAGGUGGCCGCAUGGAUCGUGGUGGUCCCGGUGGAAUGUUCAGAGGUGGCCGUGGUGGAGACAGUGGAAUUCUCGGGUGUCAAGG,0.781
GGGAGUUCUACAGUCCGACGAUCGCAGGAAGUAAAAACAAAUGGAAAUGCUUCGGAUAGUGGCAGGGGUGGGGGUUGCCAAGGAAAGGGUGGGAUGGGAGUGGGUAAAGAGUUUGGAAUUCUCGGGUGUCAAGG,-0.0288
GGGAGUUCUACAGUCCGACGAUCAGUCCUGUGCUACACAUCGUAUGUACCGAAUCGGGAAAGGGUUUUUUUGGGAAAGGGAAAGUAUUAUGUUACGCCGUUCGGAUCUGCACUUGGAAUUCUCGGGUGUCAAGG,-1.35

# Study 2
# Target: Histone acetyltransferase KAT6A, both winged helices, GST fusion (KAT6A, Homo sapiens, UniProt Q92794, residues 1-181)
# Technique: protein binding microarray
# Form: double-stranded DNA, one strand shown
# Sample: in vitro
# Tested at: not given
# Notes: 8-mer, flanks averaged, mean of 2 arrays, mostly near background
# Relative to: not given
# Direction: higher = stronger binding
# Target sequence (chain): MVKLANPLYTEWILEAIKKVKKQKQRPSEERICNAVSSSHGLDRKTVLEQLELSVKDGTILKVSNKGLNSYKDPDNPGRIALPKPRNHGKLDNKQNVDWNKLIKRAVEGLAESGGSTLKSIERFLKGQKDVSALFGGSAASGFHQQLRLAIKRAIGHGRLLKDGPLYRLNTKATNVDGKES
Sequence,E-score
CGCCTTTC,0.246
ACCCTCGT,-0.0763
CAAACTTG,-0.00834
AACCGGGT,0.206
GAGGCGAC,-0.0276
CCGCAGAA,0.289
CATTACCC,0.0397
AATGAAAA,0.0149
CGCGCGCG,0.435

# Study 3
# Target: CCNF, cyclin fold, Cln2 fusion (human)
# Technique: yeast growth competition, sequencing
# Sample: yeast
# Notes: strong parent motif
# Relative to: not given
# Direction: higher = stronger binding
# Parent: CDC25A docking peptide (human); PPHRRRLLFACSP; partner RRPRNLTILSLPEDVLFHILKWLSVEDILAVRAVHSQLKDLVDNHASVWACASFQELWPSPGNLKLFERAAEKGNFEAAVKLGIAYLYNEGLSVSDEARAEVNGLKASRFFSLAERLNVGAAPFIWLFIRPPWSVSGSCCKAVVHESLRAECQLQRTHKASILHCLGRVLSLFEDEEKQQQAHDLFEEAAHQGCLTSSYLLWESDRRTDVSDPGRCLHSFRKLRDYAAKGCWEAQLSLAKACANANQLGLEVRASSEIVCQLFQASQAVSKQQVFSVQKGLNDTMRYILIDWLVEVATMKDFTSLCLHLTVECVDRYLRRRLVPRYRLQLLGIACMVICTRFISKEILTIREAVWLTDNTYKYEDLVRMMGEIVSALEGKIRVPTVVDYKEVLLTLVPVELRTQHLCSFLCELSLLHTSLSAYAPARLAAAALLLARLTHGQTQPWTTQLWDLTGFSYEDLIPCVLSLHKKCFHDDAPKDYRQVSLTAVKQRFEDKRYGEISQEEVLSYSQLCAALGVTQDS
Variant,normalised enrichment score
R4Y,2.78
R6P,0.992
R5K F9L,0.863
P13R,5.94
F9A,1.58
R6M,7
C11M,7.78
P13C,7.71
H3E,7.8
P13Y,7.77
F9T,1.43
L7H,1.34

# Study 4
# Target: RING finger protein unkempt homolog, zinc fingers 1-6, GST-SBP tag (UNK, Homo sapiens, UniProt Q9C0B0, residues 30-357)
# UniProt Q9C0B0, sequence (30-357, looked up): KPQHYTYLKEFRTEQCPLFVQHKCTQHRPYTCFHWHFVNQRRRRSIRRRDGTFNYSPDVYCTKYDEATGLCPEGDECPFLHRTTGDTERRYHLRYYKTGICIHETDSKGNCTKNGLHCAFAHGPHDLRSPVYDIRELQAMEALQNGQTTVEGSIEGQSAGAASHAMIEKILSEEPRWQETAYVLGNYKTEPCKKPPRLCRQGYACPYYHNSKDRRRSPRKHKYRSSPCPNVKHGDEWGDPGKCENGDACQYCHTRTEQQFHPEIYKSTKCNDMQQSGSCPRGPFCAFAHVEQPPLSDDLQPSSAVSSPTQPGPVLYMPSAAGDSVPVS
# Technique: RNA Bind-n-Seq
# Form: RNA
# Sample: in vitro
# Tested at: not given
# Notes: RNA with constant flanks, human and mouse sites, ends assumed
# Relative to: input RNA pool
# Direction: higher = stronger binding
Sequence,bound/input enrichment
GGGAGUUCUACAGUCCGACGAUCGUCCCCACAAAGGCCAAGUUCCCUGCAUUUGAACUCUGAAAAGAAAGCAUGUCUCCUGCCGCUUACAGCAUGACUCUGUGUAUUACUCUGGGCUACAUAUUGCCCUUGCUUUUGAAGGAACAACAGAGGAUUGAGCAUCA,0.223 ratio
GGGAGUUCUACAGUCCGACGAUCAACAUAAAGCAGGACGACCCCUUUGAACUCUUCAUAGCAGCCACAAACAUUCGCUACUGCUACUACAACGAGACCCACAAGAUCCUGGGCAAUACCUUCGGCAUGUGUGUGCUGCAGGAUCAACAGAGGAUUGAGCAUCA,0.154 ratio
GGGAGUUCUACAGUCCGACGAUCCAUGCCCUCAGCUGUGGUCAGGUGACUUCCUGUCCCCUGGCAGCUCUGCUGAGUCCCUGUGUUUGAGCCUCCAGGGAGAAGGGUUUGGGCUGCAUUCUUCUUAUCCCCAUGCACAGAAACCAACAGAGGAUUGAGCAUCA,0.11 ratio
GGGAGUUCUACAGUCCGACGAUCGUCAAGGCCAAAACACUAAGAAAGCUGAUCCAGCAAACAUUCAGGCAGUUUGCCAACCUUAAUAGAGAAGAAAGCAUCCUGAAAUUCUUUGAGAUUCUUUCUCCUGUGUACAGAUUUGACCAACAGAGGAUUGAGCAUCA,0.512 ratio
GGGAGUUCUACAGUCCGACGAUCUUUUUGUACUUUGUAAAAUAUGGAGCCCAUUGUACCUUCAGCUAUUUGAGACUAUACACAGUGCUUCUUUUGUAACUGGAUUACUUUAACUUUCGUGAAGGCAUUACAUUGCCUCACAUUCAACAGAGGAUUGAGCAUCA,0.218 ratio

# Study 5
# Target: Prothrombin, mature alpha-thrombin (F2, Homo sapiens, UniProt P00734)
# Technique: aptamer microarray, sandwich
# Form: DNA with 2'F-ANA
# Sample: in vitro
# Tested at: 200 nM
# Notes: whole 15-mer aptamer, many near background
# Together with: Cy3 exosite-II aptamer, 400 nM
# Direction: higher = stronger binding
# Sequence: GGTTGGTGTGGTTGG
Modification,mean fluorescence intensity [a.u.]
2'F-ANA at 3 6 7 8 9 12 13 15,1100
2'F-ANA at 6 7 8 9 11 13 15,371
2'F-ANA at 1 3 4 5 10 13 15,59.4
2'F-ANA at 1 2 3 5 6 8 10 12 14 15,52.3
2'F-ANA at 1 2 3 4 5 7 8 10 13 14 15,48.1
2'F-ANA at 3 7 11 12 14,878
2'F-ANA at 2 3 4 8 9 10 11 13 14 15,147
2'F-ANA at 1 7 9 10 12 13,64.9
2'F-ANA at 2 3 5 7 11 12 13,161
2'F-ANA at 1 2 3 6 9 13,138
2'F-ANA at 1 2 4 5 6 8 11 13 15,71.6
2'F-ANA at 1 3 4 5 6 9 11 12 14 15,47.1
2'F-ANA at 1 3 4 5 8 11 13,60.7
2'F-ANA at 2 11 13 14 15,196
2'F-ANA at 4 5 11 12 13,85.6
2'F-ANA at 3 4 5 12 14 15,56
2'F-ANA at 1 3 4 6 7 8 9 11 12 15,327
2'F-ANA at 3 7 8 11 12,1360
2'F-ANA at 3 4 7 9 10 12 13 15,321
2'F-ANA at 3 4 5 6 9 11 13 15,62
2'F-ANA at 2 3 5 6 11 12,231
2'F-ANA at 2 5 6 10 11,47.4
2'F-ANA at 1 2 3 6 11 14 15,64.6
2'F-ANA at 1 4 5 6 8 12 13 14,44.1
2'F-ANA at 1 4 9 10 11 12 13 15,55.3

# Study 6
# Target: Interferon regulatory factor 7, full length, phosphomimetic (IRF7, Homo sapiens, UniProt Q92985, residues 1-503, S101K/S471D/S472D/S475D/S476D/S477D/S483D/S484D/S487D)
# Technique: protein-binding microarray
# Form: double-stranded DNA, one strand shown
# Sample: in vitro
# Tested at: 250 nM
# Notes: 60-bp whole probe
# Together with: salmon DNA 0.4 mg/ml
# Relative to: random background probes
# Direction: higher = stronger binding
# All sequences stand within: GCCTAGCAC … GTCTTGATTCGCTTGACGCTGCTG
# Construct (chain): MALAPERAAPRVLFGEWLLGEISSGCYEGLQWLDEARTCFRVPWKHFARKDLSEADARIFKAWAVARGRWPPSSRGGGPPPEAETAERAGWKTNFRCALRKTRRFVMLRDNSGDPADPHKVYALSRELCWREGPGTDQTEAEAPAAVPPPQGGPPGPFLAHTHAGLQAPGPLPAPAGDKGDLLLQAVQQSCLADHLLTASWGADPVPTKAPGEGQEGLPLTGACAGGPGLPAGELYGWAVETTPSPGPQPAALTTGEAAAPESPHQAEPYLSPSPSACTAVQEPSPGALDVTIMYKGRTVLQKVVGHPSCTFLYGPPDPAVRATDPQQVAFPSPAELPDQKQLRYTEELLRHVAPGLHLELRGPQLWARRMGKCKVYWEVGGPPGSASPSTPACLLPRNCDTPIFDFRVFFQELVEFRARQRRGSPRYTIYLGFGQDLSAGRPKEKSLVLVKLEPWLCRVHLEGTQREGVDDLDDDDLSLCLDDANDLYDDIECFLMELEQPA
Sequence,log fluorescence [z-score]
TGCCCTCTCCATACTTCCCAGTGCTAG,0.715
TTAGGACTGGGGTTTCGGCTAGTGCTA,0.697
GATGATTTCAGTATCGAGACGTGCTAG,0.379
GTAGAACTGAGTCTCGATTAGTGCTAG,0.931
TTAGGTATCGATTTTCGGTTAGTGCTA,4.67
TTAGGTTTCTGTCTCGGTTAGTGCTAG,2.57
TCACAAAAATGATTGGTACTGTGCTAG,-0.000547
GACGACCTGGGGTTTCGAGACGTGCTA,1.77
TTATATTTCGGGACTGGATTAGTGCTA,0.86
TTAGGACTGGACTTTCGGCTAGTGCTA,-0.372
TCAATGATCTCTCTGGGACTGTGCTAG,-0.167
GACGGACTGGGACGGGGGACGTGCTAG,1.18

# Repeated from above (study 2):
Sequence,E-score
CATTACCC,0.0397
CCGCAGAA,0.289
CAAACTTG,-0.00834
AATGAAAA,0.0149
CGCCTTTC,0.246
